Published values gathered from unrelated publications.
Lines come from different studies, so protocols differ. ± marks the error that the study gave. In brackets after ≈: the same amount, converted by molar mass.

CCCC[C@H](OC(C)=O)c1ccccc1C(=O)O  steady-state clearance (beagle dog, both sexes, whole blood; intravenous, 1.5 mg/kg, day 7): 23.7 ± 2.28 mL/min/kg
COc1cccc(OC)c1-c1cc(C(=O)NC2(C(=O)O)C3CC4CC(C3)CC2C4)nn1-c1ccc(C(=O)N(C)CCOCCOCCN(C)C(=O)[C@H](CCCCNC(=O)[C@H](CC(C)C)NC(=O)C2OC2C(=O)O)NC(=O)CN2CCN(CC(=O)[O-])CCN(CC(=O)[O-])CCN(CC(=O)[O-])CC2)cc1C(C)C.[177Lu+3] (mixture of isomers)  tumour-to-small intestine ratio (mouse HT-29 xenograft; 72 h, biodistribution; reference: tumour over small intestine): 18.8
O=c1c2ccccc2[se]n1CCCCCCn1[se]c2ccccc2c1=O  solubility (shake-flask, RP-HPLC; ethyl acetate; 24 h, 25 °C): 240 ± 20 µg/mL (≈ 502 µM)
[123I]c1ccc2nc(-c3ccc(-n4ccnn4)nc3)cn2c1  tissue uptake (male Wistar rat, small intestine; intravenous, 4 MBq, 14 h): 0.064 ± 0.01 %ID/g
CC(=O)N[C@@H](C)C(=O)N[C@@H](CCC(=O)O)C(=O)N[C@H]1CS/C=C\CCC[C@@H](C(=O)N[C@@H](C)C(=O)N[C@@H](Cc2ccc(O)cc2)C(N)=O)NC(=O)[C@H](C)NC(=O)[C@H](CCCNC(=N)N)NC(=O)[C@H](C)NC1=O  helicity (circular dichroism; 10 mM phosphate buffer; pH 7.4, 20 °C): 46%
Cc1ccc(OCC(=O)N(Cc2cccs2)c2ccn[nH]2)cc1  remaining compound (human plasma; 750 ng/mL, 4 h, 37 °C, unit not given; reference: time zero): 94
COCC1CN(C2CCN(c3cc(OC)c(Nc4ncc(Br)c(Nc5ccc6c(c5P(C)(C)=O)OCCO6)n4)cc3C)CC2)C1  adverse events (first-in-human trial; human; oral, 90 mg once daily; any treatment-related): 66.7%
C=CC[C@@H]1/C=C(\C)C[C@H](C)C[C@H](OC)[C@H]2O[C@@](O)(C(=O)C(=O)N3CCCC[C@H]3C(=O)O[C@H](/C(C)=C/[C@@H]3CC[C@@H](O)[C@H](OC)C3)[C@H](C)[C@@H](O)CC1=O)[C@H](C)C[C@@H]2OC  dose-normalized AUC(0-12h) (kidney transplant recipients, CYP3A5 *3/*3, whole blood; oral, dose not given, early and late phases, limited sampling): 151 ng·h/mL
C=CC(=O)Nc1cc(Nc2nccc(-c3cn(C)c4ccccc34)n2)c(OC)cc1N(C)CCNC  recovery (storage stability; human plasma; 5 h, on ice, LLOQ level): 94.5%
O=C(Nc1cnccc1-c1ccc([18F])cc1)c1ccnc(NC(=O)C2CC2)c1  SUV (mice, transgenic, GSK-3β, early-stage, lung; intravenous, dose not given, 120 min, added: tariquidar 15 mg/kg i.v. pre-dose): 0.37
C=C(NC(=O)c1csc(-c2nc3c(cc2O)-c2nc(cs2)C(=O)NC(C(C)O)C(=O)NC(=C(C)OC)c2nc(cs2)C(=O)NC2c4nc(cs4)C(=O)NC(COC(=O)c4c5c6c(cccc6n4O)COC(=O)C(OC4CC(C)(O)C(N(C)C)C(C)O4)C2OC5)c2nc-3cs2)n1)C(N)=O (stereo not drawn)  AUC(0-t) (ICR mice, Streptococcus pneumoniae ATCC 49169 infected, immunocompromised, blood; intravenous, 8 mg/kg three times daily): 0.608 µM·h
CCn1nc(Cl)c2c1-c1cnc(N)c(c1)O[C@H](C)c1cc(F)ccc1-c1nn(C)cc1C2  free plasma concentration (Balb/c nude mouse, female, plasma; 0.2 mg/kg twice daily for 5 days, 1 h): 2.1 nM

A few entries again:
O=C(Nc1cnccc1-c1ccc([18F])cc1)c1ccnc(NC(=O)C2CC2)c1  SUV (mice, transgenic, GSK-3β, early-stage, lung; intravenous, dose not given, 120 min, added: tariquidar 15 mg/kg i.v. pre-dose): 0.37
